# Experimental data pooled from the literature.
# ± gives the spread as reported.
Compound,test,test system,conditions,scale,measurement,result
Cc1ccc([C@@H]2O[C@H](CO)[C@@H](O)[C@H](O)[C@H]2O)cc1Cc1ccc(-c2ccc(F)cc2)s1,measured: inorganic phosphorus,Japanese type 2 diabetes patients,"400 mg, day 17, 24 h urine collection",relative to: baseline,urinary phosphate excretion change,92.1 mg
O=C(O)CCC(=O)O.[2H]C([2H])([2H])Oc1cc(C)c2[nH]ccc2c1CN1CC[C@@H](C2CC2)C[C@H]1c1ccc(C(=O)O)cc1,,healthy Chinese subjects,"200 mg, single ascending dose",,TEAE decreased neutrophil,0%
CC(C)(Sc1ccncc1-c1ccc(C#N)c2ccccc12)C(=O)O,,"human, plasma","oral, 10 mg once daily, with: febuxostat 0 mg",,AUC(0-24),0.209 µg·h/mL
O=C1NCCc2nc(OCc3cccc(F)c3)ccc21,modified Irwin test,"Sprague-Dawley rat, male","oral, 100 mg/kg, 30 min",higher = stronger effect,pinna reflex loss score,0.4
Cc1noc(C)c1-c1cc(C(O)(c2ccccn2)c2ccccn2)c2nc(C3CC3)[nH]c2c1,,"human patients, plasma","oral, 6 mg, cycle 1 day 8, monotherapy, 24 h",,Ctau,237 ng/mL
Cc1cc(NC2CCN(C(=O)OC3CCN(C(=O)/C=C/CN(C)C)C3)CC2)n2ncc(C(C)C)c2n1 (centres unmarked),"Phase I dose escalation CTCAE v4.0, measured: platelet count decreased",patients with advanced solid tumours,"dose not given, Total dosing any grade",,patients with adverse event,17%
OCc1nc2ccc(NCc3ccc(C(F)(F)F)cc3)cc2[nH]1,,"male Balb/c mice, kidney","oral, 10 mg/kg, 6 h",relative to: tissue over plasma,tissue/plasma ratio,12.3 ± 2
NC1(C(=O)N[C@@H](CCO)c2ccc(Cl)cc2)CCN(c2nc[nH]c3nccc2-3)CC1,,metastatic CRPC patients,"dose not given, grade 3 to 4, treatment-related, all doses, with: enzalutamide 160 mg daily",,incidence of Arthralgia,0%
CNC(=O)c1ccc(-c2cnc3ncc(Cc4ccc5ncccc5c4)n3n2)cc1F,measured: Dizziness,cancer patients,"oral, dose not given, dose escalation, grade 3-4",,patients with adverse event,0%
COc1ncc(-c2nc3c(n2C(C)C)[C@H](c2ccc(Cl)cc2)N(c2cc(Cl)cn(C)c2=O)C3=O)c(OC)n1,LC-MS/MS,"human, plasma","oral, 20 mg, cycle 2 day 1, low-dose arm",,Cmax,0.172 µg/mL
C[C@@H](O)[C@H]1C(=O)N2C(C(=O)O)=C(SCCN=CN)C[C@H]12,starch gel membrane permeability,Gram-negative envelope surrogate,"200 µM, 20 min, pH 7.4",,amount permeated,1.64 nmol
CC(C)(C(=O)N1CCOc2c(C#N)cncc2C1)C(F)F,measured: abnormal urine odour,"human, both sexes","oral, 20 mg once daily, 14 days, multiple ascending dose",,subjects with TEAE,0%
O=C1CC[C@H](Cc2ccc(OS(=O)(=O)O)c(O)c2)O1,,human plasma,mean,,plasma concentration,1.4 µM
O=C(Nc1nc2cccc(-c3ccc(CN4CCS(=O)(=O)CC4)cc3)n2n1)C1CC1,,rheumatoid arthritis patients,"oral, 100 mg twice daily, 4 weeks, regardless of relatedness",,patients with AST increased,0%
O=C1C[C@@H](c2ccc(O)cc2)Oc2cc(O[C@@H]3O[C@H](C(=O)O)[C@@H](O)[C@H](O)[C@H]3O)cc(O)c21,,human plasma,mean,,plasma concentration,0.71 µM
CNCCOC12CC3(C)CC(C)(CC(Cn4ncc(-c5ccc(N6CCc7cccc(C(=O)Nc8nc9ccccc9s8)c7C6)nc5C(=O)O)c4C)(C3)C1)C2,,"beagle dog, male, anaesthetised","intravenous bolus, 0.03 mg/kg, 105 min",relative to: baseline,dP/dt at 50 change,-4%
O=C(/C=C/CCc1ccc(O)cc1)/C=C/c1ccc(O)cc1,,nude mouse MCF7 xenograft,"10 mg/kg, day 9",,body weight,20.5 ± 1.5 g
COc1ccc2c3c([nH]c2c1)[C@H](CC(C)C)N1C(=O)[C@H](CC(=O)NC(C)C)NC(=O)[C@@H]1C3,,"wild-type mouse, male, serum","oral, 100 mg/kg, 0 h",,serum concentration,0 µM
N#Cc1ccc2c(c1)[C@H]1CCCN(C(=O)c3ccc4[nH]cnc4c3)[C@H]1C2,,human males,"160 mg, day 7",,total testosterone level,15.9 nmol/L
C=CCN1CC(=O)N2[C@@H](Cc3ccc(O)cc3F)C(=O)N(Cc3cccc(N4CC(N5CCN(CC)CC5)C4)n3)C[C@@H]2N1C(=O)NCc1ccccc1,,advanced solid tumour patients,"oral, 30 mg twice daily, any grade, dose-escalation",,treatment-related vomiting,0%
N#C[C@@]1(c2ccc3c(N)ncnn23)O[C@H](CO)[C@@H](O)[C@H]1O,plasma protein binding,human plasma,"100 µM, time not given",,recovery,94.7%
Cc1c2oc3c(C)ccc(C(=O)N[C@@H]4C(=O)N[C@H](C(C)C)C(=O)N5CCC[C@H]5C(=O)N(C)CC(=O)N(C)[C@@H](C(C)C)C(=O)O[C@@H]4C)c3nc-2c(C(=O)N[C@@H]2C(=O)N[C@H](C(C)C)C(=O)N3CCC[C@H]3C(=O)N(C)CC(=O)N(C)[C@@H](C(C)C)C(=O)O[C@@H]2C)c(N)c1=O,LC-MS,"children with cancer, plasma","dose not given, 8 h",,median plasma concentration,2.8 µg/L
CCn1cc(C(=O)O)c(=O)c2cnc(N3CCNCC3)nc21,starch gel membrane permeability,Gram-negative envelope surrogate,"200 µM, 90 min, pH 7.4",,amount permeated,4.81 nmol
C[C@@H](N)C1CCN(S(=O)(=O)c2cccc3cnccc23)CC1,measured: Rash,healthy volunteers,"150 mg, fasted",,TEAE incidence,0%
Cl.[2H]C([2H])([2H])CC(=O)c1cnc(NC(=O)C2CC2)cc1Nc1cccc(-c2ncn(C([2H])([2H])[2H])n2)c1OC,,"human, fasted, plasma","oral, 25 mg, single dose, liquid formulation",,elimination rate constant,2.53e-05 s⁻¹
NC(=O)N1c2ccccc2C=Cc2ccccc21,,human,concentration not given,,GGT increase resolution time,17 days
CCc1cc(C(=O)NC)c2nccc(N3CCc4c(cc(Cn5ccnc5)cc4-c4cn(C)nc4C(F)(F)F)C3=O)c2c1,,Sprague Dawley rats,"oral, 100 mg/kg twice daily, 7 days",relative to: vehicle,blood Lymph change,-26.8%
CC1(C)CCC(CN2CCN(c3ccc(C(=O)NS(=O)(=O)c4ccc(NCC5CCOCC5)c([N+](=O)[O-])c4)c(Oc4cnc5[nH]ccc5c4)c3)CC2)=C(c2ccc(Cl)cc2)C1,,patients,"oral, dose not given, steady state",,median trough concentration (C0),0.879 µg/mL
Cc1cc(C)c(CNC(=O)c2cc(Cl)c3c(c2C)O[C@@](C)([C@H]2CC[C@H](N(C)C)CC2)O3)c(=O)[nH]1,,"human, plasma","oral, 200 mg, cycle 1 day 1, mean, tau 24 h",,AUCtau (total),18.1 µg·h/mL
COc1cccc(O)c1OS(=O)(=O)O,,human plasma,median,,plasma concentration,1.77 µM
C[C@@H]1COCCN1c1cc(C2([S@](C)(=N)=O)CC2)nc(-c2cc[nH]c3nccc2-3)n1,,Japanese advanced solid tumour patients,"oral, 240 mg twice daily, any grade",,Diarrhea incidence,16.7%
COc1cc(C(=O)O)ccc1OS(=O)(=O)O,,human plasma,median,,plasma concentration,0.379 µM
CN(C)c1cc(NC(=O)CNC(C)(C)C)c(O)c2c1C[C@H]1C[C@H]3[C@H](N(C)C)C(O)=C(C(N)=O)C(=O)[C@@]3(O)C(O)=C1C2=O,starch gel membrane permeability,Gram-negative envelope surrogate,"200 µM, 60 min, pH 7.4",,amount permeated,2.54 nmol
Cc1ccc(Sc2ccccc2N2CCNCC2)c(C)c1,measured: blood in urine,healthy adult women,"oral, 10 mg daily, 12 days",,participants with TEAE,0%
Cc1cc(Nc2cc3ncccc3c(N[C@@H]3C[C@H]4CC[C@@H](C3)N4CCC#N)n2)n[nH]1,,healthy human subjects,"oral, 300 mg, 2 weeks, single ascending dose",,sneezing incidence,0%
NC[C@@]1(CC(=O)O)[C@@H]2CC[C@H]3C[C@@H]2[C@@H]1C3,,"human, normal renal function, plasma","oral, 20 mg single dose, geometric mean",,MRT(0-inf),5.37 h
CC(C)C[C@H](NC(=O)[C@@H](Cc1c[nH]c2ccccc12)NC(=O)[C@H](Cc1ccc(O)cc1)NC(=O)[C@H](CO)NC(=O)[C@H](Cc1c[nH]c2ccccc12)NC(=O)[C@H](Cc1c[nH]cn1)NC(=O)[C@@H]1CCC(=O)N1)C(=O)N[C@@H](CCCNC(=N)N)C(=O)N1CCC[C@H]1C(=O)NCC(N)=O,,Chinese CPP children,"intramuscular, 22.5 mg, 12 months, day 1, month 6",,"patients, drug-related Overweight TEAEs",1.5%
O=C(COc1ccc(Cl)cc1)NC12CC(c3nnc([C@H]4C[C@@H](OC(F)(F)F)C4)o3)(C1)C2,,human both sexes,"oral, 260 mg once daily, 14 days",,drug-related TEAE participants,85.7%
Oc1ccc([C@H]2COc3cc(O)ccc3C2)cc1,,human plasma,"median, both sexes",,plasma concentration,1.29 µM
O=C(N[C@H](Cc1c[nH]c2ccccc12)C(=O)Nc1ccncc1)c1ccc(N2CCN(c3ccc(F)cc3F)CC2)cc1F,,"Swiss Webster mouse, female, heart","oral, 50 mg/kg, 8 h, 20% HPβCD vehicle",,concentration,10.2 µM
O=C1CC[C@H](N2Cc3cc(N4CCN(CC5CCN(c6ccc([C@@H]7c8ccc(O)cc8CC[C@@H]7c7ccccc7)cc6)CC5)CC4)ccc3C2=O)C(=O)N1,radiolabelled mass balance,"Sprague-Dawley rat, male, feces","oral, 20 mg/kg, 0 to 168 h",,dose excreted,94.1%
CN[C@H](CC(C)C)C(=O)N[C@H]1C(=O)N[C@@H](CC(N)=O)C(=O)N[C@H]2C(=O)N[C@H]3C(=O)N[C@H](C(=O)N[C@H](C(=O)O)c4cc(O)cc(O)c4-c4cc3ccc4O)[C@H](O)c3ccc(c(Cl)c3)Oc3cc2cc(c3O[C@@H]2O[C@H](CO)[C@@H](O)[C@H](O)[C@H]2O[C@H]2C[C@](C)(N)[C@H](O)[C@H](C)O2)Oc2ccc(cc2Cl)[C@H]1O,starch gel membrane permeability,Gram-negative envelope surrogate,"200 µM, 90 min, pH 7.4",,amount permeated,1.87 nmol
FC(F)(F)c1ccc(CNc2ccc(Cc3c[nH]c4ncc(Cl)cc34)cn2)cn1,measured: Arthralgia,"patients with advanced solid tumours, all cohorts","oral, 1000 mg/day, any grade",,treatment-related adverse events,4%
COc1ccc2[nH]c([S+]([O-])Cc3ncc(C)c(OC)c3C)nc2c1 (centres unmarked),,"healthy Chinese volunteers, plasma","oral, 20 mg, enteric-coated capsules, CYP2C19 poor metabolizers",,Cmax,1.09 ± 1.05 µg/mL
Cn1cc(Nc2nccc(-c3ccc4c(c3)CN(C3COC3)CC[C@H]4NC(=O)c3cn(C(C)(C)C)nn3)n2)cn1,,"human, whole blood","50 mg twice daily, day 14",relative to: pre-dose baseline,NK cell count change,14.9%
CCCCOC(=O)N1CCN(C(=O)[C@H](CP(=O)(O)O)NC(=O)c2cc(N3CC[C@H](OC)C3)nc(-c3ccccc3)n2)CC1,measured: haemoglobin,"human, blood","16 mg, 24 h post-dose",,change from baseline,-0.5 ± 6 g/L
COc1ccnc(C(=O)NC(CO)C(=O)O)c1O (racemic),aerobic dark soil incubation,clay loam soil,"20 °C, persistence endpoint",,DT50,0.86 days
NCc1cc2c(cc1F)C(=O)N(C1CCC(=O)NC1=O)C2 (centres unmarked),,cynomolgus monkey,"oral, 0.3 mg/kg, 24 h",,plasma concentration,not detected
CC[C@H]1OC(=O)[C@H](C)[C@@H](O[C@H]2C[C@@](C)(OC)[C@@H](O)[C@H](C)O2)[C@H](C)[C@@H](O[C@@H]2O[C@H](C)C[C@H](N(C)C)[C@H]2O)[C@](C)(O)C[C@@H](C)C(=O)[C@H](C)[C@@H](O)[C@]1(C)O,starch gel membrane permeability,Gram-negative envelope surrogate,"200 µM, 60 min, pH 7.4",,amount permeated,0.97 nmol
NCC1CCN(c2nc(-c3ccncc3)nc3sc4c(c23)CCCC4)CC1,optical coherence tomography,Long-Evans rats,"intravitreal, 3 µM, 5 h",relative to: vehicle,retinal structure,no effect
COc1ccc(C=CC(=O)O)cc1O[C@@H]1O[C@H](C(=O)O)[C@@H](O)[C@H](O)[C@H]1O,,human plasma,median,,plasma concentration,0.697 µM
CCCCOc1nc(N)c2c(n1)N(Cc1cccc(CN3CCCC3)c1)CC(=O)N2,measured: decreased appetite,human,"oral, 2 mg",,drug-related TEAE incidence,0%
Cn1c(=O)c2c(ncn2C)n(C)c1=O,,"human, both sexes, cerebrospinal fluid",,,samples above LOQ,97.8%
CCN1/C(=C/C(C)=O)Sc2ccc(F)cc21,,cynomolgus monkey,"oral, 100 mg/kg, 0.5 h post-dose",,QT interval,226 ± 8 ms
O=C(O)[C@H]1O[C@@H](Oc2cc(O)cc(/C=C/c3ccc(O)cc3)c2)[C@H](O)[C@@H](O)[C@@H]1O,,"human, cerebrospinal fluid",,,samples above LOQ,0%
CN(C(=O)n1cnc(-c2ccc[n+]([O-])c2)c1)[C@H]1CC[C@H](O)CC1,,"Wistar rat, pons","oral, 10 mg/kg/day of BIA 10-2474, 24 h, repeated 5 days",,concentration,9.4 ± 0.1 ng/g

# For quick reference, copied from above:
Compound,test,test system,conditions,scale,measurement,result
NCc1cc2c(cc1F)C(=O)N(C1CCC(=O)NC1=O)C2 (centres unmarked),,cynomolgus monkey,"oral, 0.3 mg/kg, 24 h",,plasma concentration,not detected
CC[C@H]1OC(=O)[C@H](C)[C@@H](O[C@H]2C[C@@](C)(OC)[C@@H](O)[C@H](C)O2)[C@H](C)[C@@H](O[C@@H]2O[C@H](C)C[C@H](N(C)C)[C@H]2O)[C@](C)(O)C[C@@H](C)C(=O)[C@H](C)[C@@H](O)[C@]1(C)O,starch gel membrane permeability,Gram-negative envelope surrogate,"200 µM, 60 min, pH 7.4",,amount permeated,0.97 nmol
NCC1CCN(c2nc(-c3ccncc3)nc3sc4c(c23)CCCC4)CC1,optical coherence tomography,Long-Evans rats,"intravitreal, 3 µM, 5 h",relative to: vehicle,retinal structure,no effect
COc1ccc(C=CC(=O)O)cc1O[C@@H]1O[C@H](C(=O)O)[C@@H](O)[C@H](O)[C@H]1O,,human plasma,median,,plasma concentration,0.697 µM
CCCCOc1nc(N)c2c(n1)N(Cc1cccc(CN3CCCC3)c1)CC(=O)N2,measured: decreased appetite,human,"oral, 2 mg",,drug-related TEAE incidence,0%
Cn1c(=O)c2c(ncn2C)n(C)c1=O,,"human, both sexes, cerebrospinal fluid",,,samples above LOQ,97.8%
CCN1/C(=C/C(C)=O)Sc2ccc(F)cc21,,cynomolgus monkey,"oral, 100 mg/kg, 0.5 h post-dose",,QT interval,226 ± 8 ms
O=C(O)[C@H]1O[C@@H](Oc2cc(O)cc(/C=C/c3ccc(O)cc3)c2)[C@H](O)[C@@H](O)[C@@H]1O,,"human, cerebrospinal fluid",,,samples above LOQ,0%
CN(C(=O)n1cnc(-c2ccc[n+]([O-])c2)c1)[C@H]1CC[C@H](O)CC1,,"Wistar rat, pons","oral, 10 mg/kg/day of BIA 10-2474, 24 h, repeated 5 days",,concentration,9.4 ± 0.1 ng/g
